Published values gathered from unrelated publications.
Protocols differ between the studies behind these lines. ± gives the spread as reported.

CC/C(=N\NC(=O)C(C)Nc1ccccc1)c1ccc(O)c(C)c1O (centres unmarked) — LATS band intensity (SK-OV-3; Western blot; 10 µM, 6 h, 2D culture, unit not given; baseline: DMSO): 1 ± 0.39
COc1ccc(OC)c(-c2nc3ccc(-c4nc5ccc(N6CCN(C)CC6)cc5[nH]4)cc3[nH]2)c1 — growth percent (SF-268; SRB; 10 µM, 48 h): 97.6%
CC(C)C[C@H](NC(=O)C[C@H](O)[C@H](CC(C)C)NC(=O)[C@H](Cc1c[nH]cn1)NC(=O)CNC(=O)[C@@H](NC(=O)[C@H](C)NC(=O)[C@H](Cc1c[nH]c2ccccc12)NC(=O)[C@H](CCC(N)=O)NC(=O)[C@@H](Cc1ccccc1)NC(=O)COCCOCCNC(=O)CN1CCN(CC(=O)O)CCN(CC(=O)O)CCN(CC(=O)O)CC1)C(C)C)C(N)=O [lutetium-177 labelled] — tissue uptake (female BALB/c nu/nu mice, lung; intravenous, 50 pmol, 24 h): 0.024 ± 0.008 %ID/g
CO/C=C(/C(=O)OC)c1ccc(Cl)cc1COc1ccc(OCCOC)cc1 — EC50 (HEK293T ATF4-FLuc reporter; ATF4 reporter gene, activator, luciferase reporter): 1120 nM
CC(C)(CO)CO — inhibition (THP-1; pyroptotic LDH release; 2 µM, 40 min, added: LPS then nigericin): 24.8%
CCc1cnc(N2CCC(c3nc(COc4ccc(-n5cnnn5)cc4)cs3)CC2)nc1 — normalized enrichment score (HEK-293T; RNA-seq GSEA, refers to: HALLMARK_HEME_METABOLISM; concentration not given; direction not given): 1.45
CC(C)C[C@H](NC(=O)C[C@H](O)[C@H](CC(C)C)NC(=O)[C@H](Cc1c[nH]cn1)NC(=O)CNC(=O)[C@@H](NC(=O)[C@H](C)NC(=O)[C@H](Cc1c[nH]c2ccccc12)NC(=O)[C@H](CCC(N)=O)NC(=O)[C@@H](Cc1ccccc1)NC(=O)COCCOCCNC(=O)CCC(C(=O)O)N1CCN(CC(=O)O)CCN(CC(=O)O)CCN(CC(=O)O)CC1)C(C)C)C(N)=O (some centres unmarked) [lutetium-177 labelled] — tissue uptake (female BALB/c nu/nu mice, kidneys; intravenous, 50 pmol, 24 h): 1.3 ± 0.3 %ID/g
CCn1cc(-c2cc(Cn3ccoc3=N)cc3c2CCN([C@@H](C)c2cc(OC)ccn2)C3=O)c(C(F)(F)F)n1 — EC50 (OCI-Ly10; cell growth, inhibitor; 120 h): 9.77 nM
COC(=O)[C@]12CCC(C)(C)C[C@H]1[C@H]1C(=O)C=C3[C@@]4(C)C=C(C#N)C(=O)C(C)(C)[C@@H]4CC[C@@]3(C)[C@]1(C)CC2 — point of departure (HepG2; high content imaging, refers to: DNA structure; 24 h, representative mode): 0.891 µM
Cc1ccc(CNC(=O)Cn2cc(CSc3nc4ccccc4[nH]3)nn2)cc1 — cytotoxicity (MDA-MB-231; MTT; 3.91 ppm): 48.9%
Cn1cc(-c2ccc(-c3cncc(Cl)c3N3CCC4(CCNC4=O)CC3)cc2)cn1 — fold change in expression (COLO 205; microarray, refers to: TPBG; concentration not given, 6 h, gene set 5T4; baseline: untreated cells): 2
Cc1ccc2c(Nc3cccc(Cl)c3)nccc2c1NC(=O)c1csc2c(N)ncnc12 — EC50 (HEK293T ATF4-FLuc reporter; ATF4 reporter gene, activator, luciferase reporter): 2740 nM
CCOC(=O)c1nn(-c2ccccc2)c(C#N)c1NC(=O)c1nn(CC)cc1Cl — inhibition (human monocytes; phagocytosis of anti-D RBCs; 5 µM, lab-synthesized sample): < 0.5%
CSc1cc(Oc2ccnc3[nH]c(=O)cnc23)ccc1NC(=O)Nc1cc(C(C)(C)C)nn1-c1ccccc1 — phospho/total p53 ratio (patient-derived cell clone B (sample A); reverse phase protein array, refers to: p53 pSer15; human; 1 µM, 4 h; baseline: DMSO): 0.34
CCN(CC)C(=O)/C(C#N)=C/c1cc(O)c(O)c([N+](=O)[O-])c1 — inhibition (THP-1; pyroptotic LDH release; 2 µM, 40 min, added: LPS then nigericin): -23.8%
COc1cc2c(cc1OC)-c1c/c(=N\c3c(C)cc(C)cc3C)n(C)c(=O)n1CC2 — EC50 (HEK293T ATF4-FLuc reporter; ATF4 reporter gene, activator, luciferase reporter): 4130 nM
COc1cnc2cccc(N3CCc4c(cc(Cn5ccnc5C)cc4-c4cn(C)nc4C(F)(F)F)C3=O)c2c1 — EC50 (HEP3B217; cell growth; 120 h): 3030 nM
O=C(O)CCc1ccc(O)cc1 — transepithelial electrical resistance (Caco-2/THP-1 co-culture; TEER; 0.05 µg/mL, added: LPS 50 ng/mL; baseline: control): 88 ± 9.2%
CC[N+](CC)(CC(=O)Nc1c(C)cccc1C)Cc1ccccc1 — inhibition (THP-1; pyroptotic LDH release; 2 µM, 40 min, added: LPS then nigericin): 3.78%
Cc1nn(CC(F)(F)F)cc1Nc1ncc(C2CC2)c(NCCc2c[nH]cn2)n1 — number of kinases inhibited (16-kinase panel; radiometric; 1 µM, ATP at Km; below 10% of control): 0
Cn1c(Nc2nc3ccc(C(F)(F)F)cc3s2)nc2cc(C(=O)NCCOCCO)ccc21 — fold change (SH-SY5Y; RNA-seq, refers to: EVA1A mRNA; 5 µM, 5 h; baseline: untreated cells): 2.12
CC(C)[C@H](NC(=O)[C@@H](NC(=O)CCCc1cn(CC(O)CN2CCN(CC(=O)O)CCN(CC(=O)O)CCN(CC(=O)O)CC2)nn1)[C@@H](C)O)C(=O)N[C@@H](CCCNC(=N)N)C(=O)N[C@H](C(=O)N[C@@H](CO)C(=O)N[C@@H](C)C(=O)N[C@@H](CC(=O)O)C(=O)O)[C@@H](C)O (some centres unmarked) — AUC(0-inf) (healthy male humans, plasma; intravenous bolus, 0.08 mmol/kg): 1950 ± 322 µg·h/mL
C[n+]1ccccc1/C=N/O — inhibition (THP-1; pyroptotic LDH release; 2 µM, 40 min, added: LPS then nigericin): 2.65%
Cn1cc(-c2cnc3ccc4ccc(CS(=O)(=O)NCc5ccccn5)cc4c(=O)c3c2)cn1 — EC50 (HEK293T ATF4-FLuc reporter; ATF4 reporter gene, activator, luciferase reporter): > 9960 nM
CC[C@@H](C)[C@H](N)C(=O)N1Cc2ccccc2C1 — IC50 (NOMO-1; cell viability, CellTiter-Glo; day 5): 570 nM
Cc1cc(OCc2nnc(SC3CCCC3)n2-c2cccnc2)ccc1-c1ccc(S(C)(=O)=O)cc1 — MyBP-C level change (human iPSC cardiomyocytes; plate-normalised; concentration not given, hit retest; baseline: vehicle controls, SDs below control): 8.08 SD
O=C(O)c1cc(O)c2c(c1)C(=O)c1cccc(O[C@@H]3O[C@H](CO)[C@@H](O)[C@H](O)[C@H]3O)c1C2=O — cell viability (HK-2 co-cultured with HepaRG; MTT; 16.67 µM, 24 h; baseline: untreated control): 104 ± 8.97%
CC(C)[C@H](NC(=O)[C@H](Cc1ccc(O)cc1)NC(=O)[C@H](Cc1ccc(O)cc1)NC(=O)[C@@H]1CCCN1C(=O)[C@H](CCC(=O)O)NC(=O)[C@H](CCC(=O)O)NC(=O)[C@H](Cc1c[nH]c2ccccc12)NC(=O)[C@@H]1CCCN1C(=O)[C@@H](NC(=O)[C@H](CCC(N)=O)NC(=O)c1ccc2c(c1)C(=O)OC21c2ccc(O)cc2Oc2cc(O)ccc21)C(C)C)C(=O)N[C@H](C(=O)N[C@@H](CCCCN)C(=O)N[C@@H](CCCCN)C(=O)N[C@@H](CO)C(=O)N[C@@H](CO)C(=O)NCC(=O)NCC(N)=O)C(C)C — plasma concentration (refers to: total compound; human, plasma; intravenous infusion, 100 mg, 30 min): 5110 ng/mL
O=c1c(O)c(-c2ccc(O)cc2)oc2cc(O)cc(O)c12 — transepithelial electrical resistance (Caco-2/THP-1 co-culture; TEER; 0.25 µg/mL, added: LPS 250 ng/mL; baseline: control): 88.2 ± 1.4%
Cc1nn(-c2nc3ccc(Cl)c(Cl)c3[nH]2)c(O)c1C1OC(=O)c2ccccc21 (centres unmarked) — phospho-TBK1/TBK1 ratio (RAW-ISG; TBK1 phosphorylation, western blot; 10 µM, added: poly(I:C); baseline: DMSO): 0.701
CCn1cc(-c2cc(Cn3ccnc3)cc3c2CCN([C@H](c2cc(OC)ccn2)C2CC2)C3=O)c(C(F)(F)F)n1 — EC50 (COR-L105; cell growth, inhibitor; 120 h): 13900 nM
O=C(/C=C/C=C/C=C/C1CCCCC1)NC1=C[C@@](O)(/C=C/C=C/C=C/C(=O)NC2=C(O)CCC2=O)[C@@H]2O[C@@H]2C1=O — GI50 (SNU-423; cell growth, CellTiter-Glo; 78 h): 16.2 µM
O=C(NC[C@H]1CN(c2ccc(N3CCOCC3=O)cc2)C(=O)O1)c1ccc(Cl)s1 — inhibition (THP-1; pyroptotic LDH release; 2 µM, 40 min, added: LPS then nigericin): 0.02%
Cc1nn(CC(F)(F)F)cc1Nc1nccc(NCc2ccc(S(N)(=O)=O)cc2)n1 — number of kinases inhibited (16-kinase panel; radiometric; 1 µM, ATP at Km; below 10% of control): 0
Nc1cccc2c1C(=O)N(C1CCC(=O)NC1=O)C2=O (centres unmarked) — surface marker level (RPMI-8226; flow cytometry, refers to: CD108; concentration not given; baseline: comparator compound alone): 227%
O=C(O)CCc1cccc(O)c1 — transepithelial electrical resistance (Caco-2/THP-1 co-culture; TEER; concentration not given, added: LPS 250 ng/mL; baseline: control): 73.5 ± 6.2%
O=C(Nc1nnc2n3c(nc(-c4ccc(Cl)cc4)c1-2)SCC3=O)c1ccccc1 — cell growth (OVCAR-8; SRB; 10 µM, NCI60 single-dose screen; baseline: untreated): 99.8%
COc1c(O)cc2c(c1O)C(=O)c1c(cc(C)c(O)c1OC)C2=O — viability (HK-2 co-cultured with HepaRG; MTT; 16.67 µM, 24 h; baseline: untreated control): 99.7 ± 12.1%
O=C(O)P(=O)(O)O — inhibition (THP-1; pyroptotic LDH release; 2 µM, 40 min, added: LPS then nigericin): -15.3%
O=C(O)Cc1ccc(O)cc1 — transepithelial electrical resistance (Caco-2/THP-1 co-culture; TEER; 0.25 µg/mL, added: LPS 250 ng/mL; baseline: control): 84.1 ± 8.6%
O=c1[nH]nc(OCCCc2ccc(Cl)cc2)c(NCc2cccnc2)c1Br — log2 fold change (HEK293T; RNA-seq, refers to: CHAC1 mRNA; 10 µM, 6 h; baseline: vehicle): 3.7
CC(C)NCC(O)c1ccc(O)c(O)c1 (centres unmarked) — sarcomere length (mouse ventricular cardiomyocytes; dose not given, 0.391 s): 1.8 µm
CC(=O)[C@H]1CC[C@H]2[C@@H]3C=CC4=CC(=O)CC[C@@]4(C)[C@@H]3CC[C@]12C — inhibition (THP-1; pyroptotic LDH release; 2 µM, 40 min, added: LPS then nigericin): 47.5%
O=C(O)c1cc(O)c(O)c(O)c1 — transepithelial electrical resistance (Caco-2/THP-1 co-culture; TEER; 0.1 µg/mL, added: LPS 100 ng/mL; baseline: control): 74.8 ± 3.6%
O=C(NO)c1cnc(N2C[C@@H]3[C@H](C2)[C@H]3NCc2ccc3cc(F)ccc3n2)nc1 — EC50 (HEK293T ATF4-FLuc reporter; ATF4 reporter gene, activator, luciferase reporter): 392 nM
O=C(O)CCc1cc(C(=O)c2ccc(OC3CCCC3)cc2O)ccc1OCc1ccc2c(=O)[nH]oc2c1 — ED50 (UMSCC1 CSCs, ALDH-high, CD44-high; tumorsphere formation): 6.97 µM
C[C@H]1[C@H](C)CC[C@]2(C)CC[C@]3(C)C(=CC(=O)[C@@H]4[C@@]5(C)CC[C@@H](O)[C@](C)(C(=O)NCc6cn(-c7cccc(Br)c7)nn6)[C@@H]5CC[C@]43C)[C@H]12 — CD8+ T cells (human PBMCs, ConA-activated; flow cytometry; 10 µM, 24 h; baseline: T cells): 36%
COc1ccc(O)c(C(=O)O)c1 — inhibition (THP-1; pyroptotic LDH release; 2 µM, 40 min, added: LPS then nigericin): 3.28%
O=C(Nc1nc2ccc(OCc3ccccc3)cc2[nH]1)c1cn2cc(Cl)ccc2n1 — EC50 (HEK293T ATF4-FLuc reporter; ATF4 reporter gene, activator, luciferase reporter): > 9960 nM
CN(C)C/C=C/C(=O)Nc1cc2c(Nc3ccc(F)c(Cl)c3)ncnc2cc1O[C@H]1CCOC1 — viability (SW-620/AD300 spheroids, P-gp overexpressing; CellTiter-Glo 3D; 3 µM, 12 days; baseline: untreated): 106 ± 7.3%
